# Experimental data collected from several papers.
# ± gives the spread as reported.
SMILES,target or system,assay,system,setting,how to read,quantity,result
CCCCCCCC(=O)N[C@@H](CCCCN)C(=O)N[C@@H](CCCCN)C(=O)N[C@@H](C)C(=O)N[C@@H](C)C(=O)N[C@@H](CCCCN)C(=O)N[C@@H](C)C(=O)N[C@@H](C)C(=O)N[C@@H](CCCCN)C(=O)N[C@@H](CCCCN)C(=O)N1CCC[C@H]1C(=O)N[C@@H](C)C(=O)N[C@@H](CCCCN)C(=O)N[C@@H](C)C(=O)N[C@@H](C)C(=O)N[C@@H](CCCCN)C(N)=O,human red blood cells,haemolysis,,"6 h, 37 °C, 5% haematocrit in PBS",,MHC10,> 160 µM
Nc1nc2c(ncn2[C@@H]2O[C@@H]3COP(=O)(O)O[C@H]4[C@@H](O)[C@H](n5cnc6c(N)ncnc65)O[C@@H]4COP(=O)(O)O[C@@H]2[C@@H]3O)c(=O)[nH]1,HFF-1,,,0.1 µg/mL,,viability,94.3%
CCN(CC)CCOc1ccc(-c2nc3cc(Cl)ccc3s2)cc1,African green monkey cells,,,5 days,,CC50,3.72 µM
Oc1ccc(C(c2ccc(O)cc2)(C(F)(F)F)C(F)(F)F)cc1,"HepG2 spheroids, dissociated",annexin V-FITC/PI flow cytometry,,"40 µM, 24 h",,late apoptotic cells,9.91 ± 4.56%
CN(CCC(Oc1ccc(C(F)(F)F)cc1)c1ccccc1)N=O (centres unmarked),TK6 expressing CYP2C19,,,"0.062 µM, 4 h, without S9",baseline: vehicle,relative survival,13.7%
CC[C@H](C)[C@H](N)C(=O)N[C@@H](CCCNC(=N)N)C(=O)N[C@@H](CCCNC(=N)N)C(=O)N[C@@H](C)C(=O)N[C@H](C(=O)N[C@@H](CC(N)=O)C(=O)N[C@@H](CCCCN)C(=O)N[C@@H](Cc1ccc(O)cc1)C(=O)N1CCC[C@H]1C(=O)N1CCC[C@H]1C(=O)N[C@H](C(=O)N[C@@H](CC(N)=O)C(=O)N[C@@H](CC(C)C)C(=O)N[C@@H](CCCCN)C(=O)N[C@H](C(=O)N[C@@H](CCCCN)C(=O)N[C@@H](CS)C(=O)N[C@@H](CC(N)=O)C(=O)N[C@@H](CCCNC(=N)N)C(=O)N[C@@H](CC(C)C)C(=O)N[C@@H](CC(N)=O)C(=O)N[C@@H](CO)C(=O)N[C@H](C(=O)N[C@@H](CC(=O)O)C(=O)N1CCC[C@H]1C(=O)N[C@@H](CCCCN)C(=O)N[C@@H](CCC(N)=O)C(=O)N1CCC[C@H]1C(=O)N1CCC[C@H]1C(=O)N[C@@H](CCCNC(=N)N)C(=O)N1CCC[C@H]1C(=O)N[C@@H](Cc1ccccc1)C(=O)N[C@@H](CCCNC(=N)N)C(=O)N[C@@H](CO)C(=O)N[C@@H](Cc1ccccc1)C(=O)N[C@H](C(=O)N1CCC[C@H]1C(=O)NCC(=O)N1CCC[C@H]1C(=O)N[C@@H](CC(C)C)C(=O)N[C@@H](CCCCN)C(=O)N[C@@H](C)C(=O)N[C@H](C(=O)N[C@@H](CC(C)C)C(=O)N[C@@H](CCCCN)C(=O)O)[C@@H](C)O)C(C)C)[C@@H](C)CC)[C@@H](C)CC)[C@@H](C)CC)[C@@H](C)CC,human red blood cells,hemolysis,,,,HC50,34 µmol/L
CNC1CC(c2ccc(Cl)c(Cl)c2)c2ccccc21 (centres unmarked),African green monkey cells,,,5 days,,CC50,8.51 µM
O=c1ccc2ccccc2o1,NHEK,caspase-3/7 activity,,"concentration not given, 6 h",,chance response,0.1%
O=S(=O)(O)c1nc2ccccc2s1,rat hepatoma cells,"cell confluency, IncuCyte imaging",,"24 h, nominal concentration",,IC10,597 µM
Cc1ccc(OCCc2cccc(F)c2)c(C(N)=O)c1,HepG2,,,3 (unit not given),baseline: CC50 glucose over CC50 galactose,selectivity ratio,< 1
c1cc2ccc3cccc4ccc(c1)c2c34,rat hepatoma cells,cell confluency,,"24 h, nominal concentration",baseline: baseline IC10 over IC10,toxic ratio,0.3
CN(CC[C@H](Oc1cccc2ccccc12)c1cccs1)N=O,TK6 expressing CYP2C19,,,"0.125 µM, 4 h, without S9",baseline: vehicle,relative survival,85.2%
O=S(=O)(c1ccc(O)cc1)c1ccc(O)cc1,"HepG2 spheroids, dissociated",annexin V-FITC/PI flow cytometry,,"1 µM, 96 h",,early apoptotic cells,5.94 ± 1.02%
Cc1c(-c2ccc(O)cc2)n(Cc2ccc(OCCN3CCCCC3)cc2)c2ccc(O)cc12,African green monkey cells,,,5 days,,CC50,4.62 µM
CC(=O)N[C@@H](CCCCN)C(=O)N[C@@H](CCCCN)C(=O)N[C@@H](CC(C)C)C(=O)N[C@@H](CC(C)C)C(=O)N[C@@H](CCCCN)C(=O)N[C@@H](CC(C)C)C(=O)N[C@@H](CC(C)C)C(=O)N[C@@H](CCCCN)C(=O)N[C@@H](C)C(=O)N1CCC[C@H]1C(=O)N[C@@H](CC(C)C)C(=O)N[C@@H](CCCCN)C(=O)N[C@@H](CC(C)C)C(=O)N[C@@H](CC(C)C)C(=O)N[C@@H](CCCCN)C(N)=O,human red blood cells,haemolysis,,"6 h, 37 °C, 5% haematocrit in PBS",,MHC10,> 160 µM
CC(=O)N[C@@H]1[C@@H](O[C@H](C)C(=O)N[C@@H](C)C(=O)N[C@H](CCC(=O)O)C(N)=O)[C@H](O)[C@@H](CO)O[C@H]1O,HFF-1,,,0.1 µg/mL,,viability,93.5%
O=c1ccc2ccc(OCCCCN3CCN(c4cccc5sccc45)CC3)cc2[nH]1,African green monkey cells,,,5 days,,CC50,12 µM
CC[C@H](C)[C@H](NC(=O)[C@H](CCC(N)=O)NC(=O)[C@H](CCCCN)NC(=O)[C@H](CCSC)NC(=O)[C@H](CO)NC(=O)[C@H](CCC(=O)O)NC(=O)[C@H](CCC(N)=O)NC(=O)[C@@H]1CCCN1C(=O)[C@H](CS)NC(=O)[C@@H](NC(=O)[C@H](CCCCN)NC(=O)[C@@H](NC(=O)CNC(=O)[C@@H](NC(=O)[C@@H]1CCCN1C(=O)[C@H](Cc1ccccc1)NC(=O)[C@H](Cc1ccccc1)NC(=O)[C@H](C)NC(=O)[C@H](CO)NC(=O)[C@H](CCCNC(=N)N)NC(=O)[C@H](CCCCN)NC(=O)[C@@H](NC(=O)[C@H](CCCNC(=N)N)NC(=O)[C@H](Cc1c[nH]cn1)NC(=O)[C@H](CCCCN)NC(=O)[C@H](C)NC(=O)[C@H](CC(C)C)NC(=O)[C@H](CC(=O)O)NC(=O)[C@H](Cc1ccccc1)NC(=O)[C@@H](NC(=O)[C@H](CCCNC(=N)N)NC(=O)[C@H](CCCNC(=N)N)NC(=O)[C@H](CCSC)NC(=O)[C@@H](NC(=O)[C@H](CO)NC(=O)[C@H](CCSC)NC(=O)[C@H](CCCCN)NC(=O)[C@H](Cc1ccc(O)cc1)NC(=O)[C@H](CCSC)NC(=O)[C@@H](N)CCCCN)[C@@H](C)O)[C@@H](C)CC)[C@@H](C)O)[C@@H](C)O)C(C)C)C(C)C)C(=O)N[C@@H](CC(C)C)C(=O)O,human red blood cells,hemolysis,,,,HC50,2260 µmol/L
Oc1ccc(C2(c3ccc(O)cc3)c3ccccc3-c3ccccc32)cc1,"HepG2 spheroids, dissociated",annexin V-FITC/PI flow cytometry,,"0.10 µM, 96 h",,viable cells,40.3 ± 13.3%
CC(C)C[C@H](NC(=O)CN)C(=O)N[C@@H](CCCCN)C(=O)N[C@@H](CCCCN)C(=O)N[C@@H](CC(C)C)C(=O)N[C@@H](CC(C)C)C(=O)N[C@@H](CC(C)C)C(=O)N[C@@H](CC(C)C)C(=O)N[C@@H](CC(C)C)C(=O)N[C@@H](CCCCN)C(=O)N[C@@H](CCCCN)C(=O)N[C@@H](CC(C)C)C(=O)NCC(=O)O,human red blood cells,,,"1 h, 37 °C, 10% hemolysis",,lowest hemolytic concentration,> 256 µg/mL
Cc1cc(C(C)(C)c2ccc(O)c(C)c2)ccc1O,"HepG2 spheroids, dissociated",annexin V-FITC/PI flow cytometry,,"10 µM, 24 h",,early apoptotic cells,16.9 ± 9.49%
CN1CCC(=C2c3ccccc3Oc3ccc(Cl)cc32)CC1,African green monkey cells,,,5 days,,CC50,15 µM
CC[C@H](C)[C@H](NC(=O)[C@H](CC(=O)O)NC(=O)[C@@H](NC(=O)[C@H](CC(N)=O)NC(=O)[C@@H]1CCCN1C(=O)[C@@H](NC(=O)[C@H](Cc1ccccc1)NC(=O)CNC(=O)CNC(=O)CNC(=O)[C@H](CC(C)C)NC(=O)[C@H](CCCCN)NC(=O)[C@H](CCCCN)NC(=O)[C@H](CC(C)C)NC(=O)[C@H](CC(C)C)NC(=O)[C@H](CC(C)C)NC(=O)[C@H](CC(C)C)NC(=O)[C@H](CC(C)C)NC(=O)[C@H](CCCCN)NC(=O)[C@H](CCCCN)NC(=O)[C@@H](N)CC(C)C)[C@@H](C)O)[C@@H](C)O)C(=O)N[C@H](C(=O)N[C@H](C(=O)N[C@@H](CCCNC(=N)N)C(=O)N[C@H](C(=O)N[C@H](C(=O)O)[C@@H](C)O)[C@@H](C)O)[C@@H](C)O)[C@@H](C)CC,HEK-293T cells,CCK-8,,"4 h, 37 °C, 10% cell death",,lowest cytotoxic concentration,> 256 µg/mL
CCCSc1ccccc1N1CCN(CCCCn2c(=O)[nH]c3ccccc3c2=O)CC1,African green monkey cells,,,5 days,,CC50,7.24 µM
CC[C@H](C)[C@H](NC(=O)CN)C(=O)NCC(=O)N[C@@H](C)C(=O)N[C@H](C(=O)N[C@@H](CC(C)C)C(=O)N[C@@H](CCCCN)C(=O)N[C@H](C(=O)N[C@@H](CC(C)C)C(=O)N[C@H](C(=O)N[C@H](C(=O)NCC(=O)N[C@@H](CC(C)C)C(=O)N1CCC[C@H]1C(=O)N[C@@H](C)C(=O)N[C@@H](CC(C)C)C(=O)N[C@H](C(=O)N[C@@H](CO)C(=O)N[C@@H](Cc1c[nH]c2ccccc12)C(=O)N[C@H](C(=O)N[C@@H](CCCCN)C(=O)N[C@@H](CCCNC(=N)N)C(=O)N[C@@H](CCCCN)C(=O)N[C@@H](CCCNC(=N)N)C(=O)N[C@@H](CCC(N)=O)C(=O)N[C@@H](CCC(N)=O)C(N)=O)[C@@H](C)CC)[C@@H](C)CC)[C@@H](C)O)[C@@H](C)O)C(C)C)C(C)C,RAW264.7,,,4 µM,,cell death,> 50%
COc1cc2c3cc1Oc1c(OC)c(OC)cc4c1[C@@H](Cc1ccc(O)c(c1)Oc1ccc(cc1)C[C@@H]3N(C)CC2)N(C)CC4,African green monkey cells,,,5 days,,CC50,10.2 µM
C=C(C)[C@H]1Cc2c(ccc3c2O[C@@H]2COc4cc(OC)c(OC)cc4[C@@H]2C3=O)O1,THLE-2 transduced with Ad-CYP1A2,metabolism-induced cytotoxicity,,"48 h, 3D Matrigel spots",,IC50,0.3 ± 0.1 µM
Nc1nc2c(ncn2[C@@H]2O[C@@H]3COP(=O)(O)O[C@H]4[C@@H](O)[C@H](n5cnc6c(N)ncnc65)O[C@@H]4COP(=O)(O)O[C@H]3[C@H]2O)c(=O)[nH]1,HFF-1,,,10 µg/mL,,viability,89.5%
COc1cc2c(Oc3ccc4[nH]c(C)cc4c3F)ccnc2cc1OCC1(N)CC1,,,paediatric refractory sarcoma patients,8 mg,,ALP elevation incidence,0%

# For quick reference, copied from above:
SMILES,target or system,assay,system,setting,how to read,quantity,result
O=c1ccc2ccc(OCCCCN3CCN(c4cccc5sccc45)CC3)cc2[nH]1,African green monkey cells,,,5 days,,CC50,12 µM
C=C(C)[C@H]1Cc2c(ccc3c2O[C@@H]2COc4cc(OC)c(OC)cc4[C@@H]2C3=O)O1,THLE-2 transduced with Ad-CYP1A2,metabolism-induced cytotoxicity,,"48 h, 3D Matrigel spots",,IC50,0.3 ± 0.1 µM
Cc1cc(C(C)(C)c2ccc(O)c(C)c2)ccc1O,"HepG2 spheroids, dissociated",annexin V-FITC/PI flow cytometry,,"10 µM, 24 h",,early apoptotic cells,16.9 ± 9.49%
c1cc2ccc3cccc4ccc(c1)c2c34,rat hepatoma cells,cell confluency,,"24 h, nominal concentration",baseline: baseline IC10 over IC10,toxic ratio,0.3
